Published values gathered from unrelated publications.
Parts stem from different laboratories: compare values within a part only. Changes are numbered by the printed parent chain.

Set 1 — method: RNA Bind-n-Seq; form: RNA; sample: in vitro; tested at: not given; setting: RNA with constant flanks, ends assumed; reference: input RNA pool; direction: higher = stronger binding
Target: RING finger protein unkempt homolog, zinc fingers 1-6, GST-SBP tag (UNK, Homo sapiens, UniProt Q9C0B0, residues 30-357)
Constant ends, left off below: GGGAGUUCUACAGUCCGACGAUC … CAACAGAGGAUUGAGCAUCA
Construct (chain): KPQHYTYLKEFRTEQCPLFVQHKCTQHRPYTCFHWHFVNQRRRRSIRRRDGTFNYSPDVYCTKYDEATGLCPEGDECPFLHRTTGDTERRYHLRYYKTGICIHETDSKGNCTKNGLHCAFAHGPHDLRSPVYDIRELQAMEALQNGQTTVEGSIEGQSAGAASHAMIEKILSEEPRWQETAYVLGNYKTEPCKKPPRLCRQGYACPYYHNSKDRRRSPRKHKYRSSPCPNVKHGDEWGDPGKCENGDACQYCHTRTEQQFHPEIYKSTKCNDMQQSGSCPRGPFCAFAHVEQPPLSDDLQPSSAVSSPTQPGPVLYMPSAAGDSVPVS
| Sequence | bound/input enrichment |
| --- | --- |
| GGAUUUGGAGAUGCAGUGGAUAAUAGUAAUUGCUGGCAGCCUGUUAUCGACUACAUUGACCGUAAAUUUGAGGACUACCUAAAUGCAGAAUCACGAGUGAACAGACGUCAGAUGCCUGAU | 0.32 ratio |
| CAGUGGUAUUAAUGGAUGGCAUUAUGUUUGGAGGCAGCAGCAUAGAGGACUGUUGUUUACCGAGAAAAGAUUUGGGAAGGACUGUUUACAAUGUGGGUCAGCCUGAAGCCUGGGCACUUU | 0.705 ratio |
| AGGAAACAGAUCAAUAAUAUAUUUUAUAGGUUUAUCUAUGAGACAGAGCAUCACAAUGGCACCGCGGAGUUACUGGAGAUCCUGGGAAGUAUAAUUAAUGGAUUUGCCUUACCACUGAAG | 1.18 ratio |
| CUGUUGUAUGAAAGGAGAGAAGGAUAACAAAUUGCGGUUUUCCCUGGUAAACACAGUAAGCCGUAAACUCAGGAUUCAAAACCAAAUAUACACACCAAAUCCACUAUGUAAUAUUAAGUU | 0.246 ratio |
| AAAGAACUACUGAGGCAAGGCAGCAAAUUUAGGAGAGACAUUUCAACAAUAUUGACCGAGUCCGGAUUCCAAAUUAAAAAGAAAACUAAGACAUUAUACAUCAACAAAGCCAAUGUGUGG | 2.91 ratio |
| UUAUUUUCAGUUUGUAAUUUUUUUUUUUAAUUUACGUGUAUGUACUCACUAAGAAAGUACAUUUUCCCGGGGCUAAGGAUAUGGCUCAGUGGUAGAGCACUUGCCUAACAUACACAAAGC | 12.8 ratio |
| GGGAUCACUCCGUCGCACCCACCAUGAUGGAAGACGACGGACAGCCCCGGACUCUAUACGCCGGUAACCUCUCCAGAGAUGUGACAGAAGUCCUUAUUCUUCAGUUAUUCAGUCAGAUCG | 0.0509 ratio |
| UCAACUGACAACAUCAAAUACCAGCCUAAGGGGGGUCAGGUACAAAUUGUUACUAAGAAGACCGACUUAAGCCAUGUGACAUCCAAAUGUGGCUCUCUAAAGAACAUCCGUCACAGGCCA | 0.132 ratio |
| GACAAAACGCACCCUACCUGGAAAGUACUUGGAGAAGAUCGCAGAGCAGAUGCAUUCCCACCGUAUCAAUGCCCUUCUGAUCAUUGGAGGAUUUGAGCCAGUGGUAAUAUGAGAGAAUGA | 0.0693 ratio |
| UGCCACCAUACCCAAUGGAUAGAACUUGAUUUUUAAAAGCUUGUUUUGUCAACUUGUAUGCCGUACAGUGGCCAGUGAUCGCCUAGCCUGCACGAGGCCCCGGGGUUGAUCUCCCGCAUC | 0.245 ratio |
| AGAGACCUCCUAAAGACAUUCAGAAUCUCAUCUGACACAUUUAUAACCUACAUGAUGACUUCCGAAGACCAUUACCAUUCUGACGUGGCAUAUCACAACAGCCUGCACGCUGCUGAUGUA | 0.106 ratio |

Set 2 — target: CEBPD, bZIP domain (human); method: DHFR protein complementation; sample: yeast; reference: wild-type JUN-FOS pair; direction: higher = stronger binding
Setting: single substitutions, most at no-binding floor
Parent: JUN, bZIP domain (human); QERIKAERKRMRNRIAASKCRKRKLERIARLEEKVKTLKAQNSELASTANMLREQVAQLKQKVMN; partner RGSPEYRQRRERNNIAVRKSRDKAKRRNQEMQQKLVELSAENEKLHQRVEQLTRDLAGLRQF
| Change | binding fitness [natural log] |
| --- | --- |
| T48P | -1.47 |
| S43C | -1.35 |
| Q55D | -1.52 |
| S43M | -1.31 |
| K36H | -1.42 |
| K36T | -1.44 |
| K34P | -1.49 |
| Q41A | -1.38 |
| K39R | -1.29 |
| E44A | -1.4 |
| E33Q | -1.43 |
| L45T | -1.51 |
| E33G | -1.36 |
| A46H | -1.33 |
| I28D | -1.35 |
| Q55L | -1.46 |
| R30N | -1.34 |
| A46V | -1.36 |
| Q41F | -1.37 |
| N42L | -1.45 |
| T37E | -1.31 |
| Q41M | -1.43 |
| V35G | -1.5 |
| I28Y | -1.27 |
| L38H | -1.47 |

Set 3 — method: DHFR PCA, deep sequencing; sample: yeast; added: (+)-ABA 0 µM; reference: wild-type fitted maximum; direction: higher = stronger binding
Target: ABI1, truncated, D143A, DHFR fusion (Arabidopsis thaliana)
Setting: methotrexate growth selection, single substitutions
Parent: PYL1, truncated, DHFR fusion (Arabidopsis thaliana); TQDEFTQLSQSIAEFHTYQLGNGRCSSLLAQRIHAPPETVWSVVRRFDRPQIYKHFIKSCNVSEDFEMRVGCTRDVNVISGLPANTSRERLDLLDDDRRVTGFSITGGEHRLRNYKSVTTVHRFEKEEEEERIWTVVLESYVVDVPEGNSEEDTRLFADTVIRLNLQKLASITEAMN; partner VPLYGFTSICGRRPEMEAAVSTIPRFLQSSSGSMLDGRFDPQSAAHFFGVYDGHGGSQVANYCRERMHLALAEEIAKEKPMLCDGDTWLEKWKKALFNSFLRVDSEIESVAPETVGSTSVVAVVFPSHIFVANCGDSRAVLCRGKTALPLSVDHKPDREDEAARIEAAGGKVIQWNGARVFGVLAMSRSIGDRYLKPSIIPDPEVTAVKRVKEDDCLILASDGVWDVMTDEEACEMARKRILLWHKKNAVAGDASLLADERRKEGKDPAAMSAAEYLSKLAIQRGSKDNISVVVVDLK
| Change | relative binding score [%] |
| --- | --- |
| N114K | 5.46 |
| D144T | -0.335 |
| W134D | 10.6 |
| F5H | 7.58 |
| R69T | 17.4 |
| E152F | -9.08 |
| G71I | -1.87 |
| S59W | 7.98 |
| S11I | 20.6 |
| P50A | -0.395 |
| P36I | -6.04 |
| G102N | -2.41 |
| D3F | 40.1 |
| E89P | 3.5 |
| T106V | 62.6 |
| N85R | 47.6 |
| D97A | 30.8 |
| P83F | 4.95 |
| L8C | -2.84 |
| A175W | 1.04 |
| R132A | 41 |

Set 4 — method: aptamer microarray, sandwich; form: DNA with 2'F-ANA; sample: in vitro; tested at: 200 nM; added: Cy3 exosite-II aptamer, 400 nM; direction: higher = stronger binding; sequence: GGTTGGTGTGGTTGG
Target: Prothrombin, mature alpha-thrombin (F2, Homo sapiens, UniProt P00734)
Setting: whole 15-mer aptamer, many near background
| Modification | mean fluorescence intensity [a.u.] |
| --- | --- |
| 2'F-ANA at 1 3 6 7 9 10 14 15 | 60.4 |
| 2'F-ANA at 2 4 5 10 11 13 14 15 | 52.5 |
| 2'F-ANA at 2 5 6 9 12 13 | 93.6 |
| 2'F-ANA at 4 6 7 9 12 13 14 15 | 79 |
| 2'F-ANA at 1 3 4 5 7 9 14 | 48.5 |
| 2'F-ANA at 2 3 5 6 8 11 12 14 15 | 57.9 |
| 2'F-ANA at 2 3 6 8 11 12 13 14 | 411 |
| 2'F-ANA at 2 4 5 6 7 10 12 | 64.9 |
| 2'F-ANA at 1 2 3 5 11 12 14 15 | 47.2 |
| 2'F-ANA at 4 6 13 14 | 83.5 |
| 2'F-ANA at 2 3 7 9 10 12 13 14 | 349 |
| 2'F-ANA at 2 5 6 14 15 | 44.9 |
| 2'F-ANA at 3 4 5 6 8 12 13 14 15 | 54 |
| 2'F-ANA at 2 3 4 5 6 7 9 10 14 15 | 56.2 |
| 2'F-ANA at 5 6 7 9 10 12 15 | 49.9 |
| 2'F-ANA at 1 4 5 11 12 14 15 | 44.5 |
| 2'F-ANA at 5 8 12 15 | 202 |
| 2'F-ANA at 4 6 10 11 12 13 | 81.1 |
| 2'F-ANA at 1 3 6 7 9 13 14 | 72.7 |
| 2'F-ANA at 1 5 10 12 | 46.9 |
| 2'F-ANA at 1 4 6 7 12 | 259 |
| 2'F-ANA at 2 3 5 6 8 13 14 15 | 54 |
| 2'F-ANA at 4 5 7 8 11 12 14 15 | 50.9 |
| 2'F-ANA at 3 4 5 6 7 8 11 13 | 69.9 |
| 2'F-ANA at 4 7 8 10 11 14 | 60.1 |

Set 5 — target: CCNB1, cyclin fold, Cln2 fusion (human); method: yeast growth competition, sequencing; sample: yeast; setting: strong parent motif; reference: not given; direction: higher = stronger binding
Parent: E2F1 docking peptide (human); PPVKRRLDLETDH
| Change | normalised enrichment score |
| --- | --- |
| PYVKRRLDLETDH [P2Y] | 0.992 |
| PPVKARLDLETDH [R5A] | 0.387 |
| APVKRRLDLETDH [P1A] | 1.78 |
| PQVKRRLDLETDH [P2Q] | 0.336 |
| PPNKRRLDLETDH [V3N] | 0.758 |
| PPVKRWLDLETDH [R6W] | 0.624 |
| PPVKRRLYLETDH [D8Y] | 1.08 |
| NPVKRRLDLETDH [P1N] | 1.03 |
| PPVSRRLDLETDH [K4S] | 1.53 |
| PPVKRQLDLETDH [R6Q] | 1.03 |
| PPVERRLDLETDH [K4E] | 1.42 |
| PPVKRRLDLETDI [H13I] | 1.8 |
| PNVKRRLDLETDH [P2N] | 1.05 |
| PPVKRRLDLECDH [T11C] | 1.57 |
| WPVKRRLDLETDH [P1W] | 1.85 |
| PPVKRRLDLETIH [D12I] | 0.527 |
| PPVKRSLDLETDH [R6S] | 0.891 |
| PPVKRRLDLLTDH [E10L] | 0.87 |
| PPVKRRLDLETSH [D12S] | 1.36 |
| PPVKRRLDLVTDH [E10V] | 0.629 |

Excerpt of the above (set 5):
| Change | normalised enrichment score |
| --- | --- |
| PPVKARLDLETDH [R5A] | 0.387 |
| APVKRRLDLETDH [P1A] | 1.78 |
| PQVKRRLDLETDH [P2Q] | 0.336 |
| PPNKRRLDLETDH [V3N] | 0.758 |
| PPVKRWLDLETDH [R6W] | 0.624 |
| PPVKRRLYLETDH [D8Y] | 1.08 |
| NPVKRRLDLETDH [P1N] | 1.03 |
| PPVSRRLDLETDH [K4S] | 1.53 |
| PPVKRQLDLETDH [R6Q] | 1.03 |
| PPVERRLDLETDH [K4E] | 1.42 |
| PPVKRRLDLETDI [H13I] | 1.8 |
| PNVKRRLDLETDH [P2N] | 1.05 |
| PPVKRRLDLECDH [T11C] | 1.57 |
| WPVKRRLDLETDH [P1W] | 1.85 |
| PPVKRRLDLETIH [D12I] | 0.527 |
| PPVKRSLDLETDH [R6S] | 0.891 |
| PPVKRRLDLLTDH [E10L] | 0.87 |
